# Assay results collected from several papers.
# A part holds a random share of what one study measured.

# Series 1
# Target: Interferon regulatory factor 3, full length, phosphomimetic (IRF3, Homo sapiens, UniProt Q14653, residues 1-427, S386D/S396D/S398D/S402D/T404D/S405D)
# Technique: protein-binding microarray
# Form: double-stranded DNA, one strand shown
# Matrix: in vitro
# Concentration: 2540 nM top
# Notes: 60-bp whole probe
# Together with: salmon DNA 0.4 mg/ml
# Baseline: random background probes
# Direction: higher = stronger binding
# Construct (chain): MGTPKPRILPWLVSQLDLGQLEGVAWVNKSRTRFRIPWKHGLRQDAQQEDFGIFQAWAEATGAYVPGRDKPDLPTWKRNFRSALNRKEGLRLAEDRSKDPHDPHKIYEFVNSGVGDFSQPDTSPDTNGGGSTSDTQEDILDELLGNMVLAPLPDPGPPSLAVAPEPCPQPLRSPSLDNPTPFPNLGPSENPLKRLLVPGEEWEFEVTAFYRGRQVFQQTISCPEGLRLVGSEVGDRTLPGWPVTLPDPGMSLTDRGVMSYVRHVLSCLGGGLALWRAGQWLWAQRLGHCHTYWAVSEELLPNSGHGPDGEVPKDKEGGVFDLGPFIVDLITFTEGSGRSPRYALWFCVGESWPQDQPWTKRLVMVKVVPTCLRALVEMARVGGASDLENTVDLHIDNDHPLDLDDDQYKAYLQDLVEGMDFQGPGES
Oligonucleotide,fitted relative affinity [z-score]
GCCTAGCACCAAACACTAGTTTTTACTTTGTGCTAGGTCTTGATTCGCTTGACGCTGCTG,1.6
GCCTAGCACGACGGACTGGACTCTGGGGACGTGCTAGTCTTGATTCGCTTGACGCTGCTG,-0.594
GCCTAGCACTTAGGTTTCGACAATCGGTTAGTGCTAGTCTTGATTCGCTTGACGCTGCTG,1.79
GCCTAGCACTCAGGTCTGTTTCTGATACTGTGCTAGGTCTTGATTCGCTTGACGCTGCTG,2.79

# Series 2
# Target: RNA binding protein fox-1 homolog 2, RRM domain, GST-SBP tag (RBFOX2, Homo sapiens, UniProt O43251-10, residues 100-194)
# Technique: RNA Bind-n-Seq
# Form: RNA
# Matrix: in vitro
# Concentration: 365 nM
# Notes: natural RNA segment, single round, ends assumed
# Baseline: no-protein control
# Direction: higher = stronger binding
Oligonucleotide,RBNS enrichment (R)
GGGAGUUCUACAGUCCGACGAUCGAUCAAUGCAAUAUGGGAAUAAUCAGUGAGGUUGGCUUUUUUCCCUACUGUUAAAUAGCAUUUGUCUAAUUGCUAAUAAGCCUGUCGUUACCAAAUUUUAUAUAAGAAUGUGGAAUUCUCGGGUGCCAA,0.556
GGGAGUUCUACAGUCCGACGAUCUGAUCCCAGCACUUGGGAGGCAGAGGCAGGCGGAUUUUUGAGUUUGAGACCAGCCUGAUCCAUAGAGUGAGUUCCAGGACAGCCAGGUUUAUACAGAGAAACCCUGUCUUUGGAAUUCUCGGGUGCCAA,0.73
GGGAGUUCUACAGUCCGACGAUCAUUAAAAUAUUCUCCUUUCGUCUUCAUAUUUACCUUCUGAGGUAAUUUUUUAACUUAAUGUGUUACUACAAAGAUUUGCAGAUCUUUAAUCAAGCACUAUGUUAAUACUGUGGAAUUCUCGGGUGCCAA,0.646

# Series 3
# Target: Centromere-binding protein 1, full length, N-terminal tag (CBF1, Saccharomyces cerevisiae, UniProt P17106, residues 1-351)
# Sequence of UniProt P17106 (whole entry, looked up): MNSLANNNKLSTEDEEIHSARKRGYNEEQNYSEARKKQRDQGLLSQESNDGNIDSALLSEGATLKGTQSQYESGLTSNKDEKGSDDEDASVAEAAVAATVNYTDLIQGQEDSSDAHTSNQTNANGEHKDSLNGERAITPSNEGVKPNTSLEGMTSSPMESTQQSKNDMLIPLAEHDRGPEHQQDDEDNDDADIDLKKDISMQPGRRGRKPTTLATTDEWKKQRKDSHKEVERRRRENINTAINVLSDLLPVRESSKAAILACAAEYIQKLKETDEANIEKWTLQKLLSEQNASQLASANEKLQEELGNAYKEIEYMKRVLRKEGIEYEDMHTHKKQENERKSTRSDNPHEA
# Technique: protein-binding microarray
# Form: double-stranded DNA, one strand shown
# Matrix: in vitro
# Concentration: 0.8 µM
# Notes: whole 60-bp probe, no competitor
# Direction: higher = stronger binding
Oligonucleotide,fluorescence intensity [a.u.]
GAACTTTCCCTTTCACTCGTGCGGTTTTACCAGTAGGTCTTGATTCGCTTGACGCTGCTG,533
CCTAACTACTATACTATCGTGGGATAGCTTCGTACAGTCTTGATTCGCTTGACGCTGCTG,502
GAATTTAGTGTAAAAAAGGTGATGATAATTTATTAGGTCTTGATTCGCTTGACGCTGCTG,535
CTACTCTTTACACCGTACGTGATAATACACTAATTCGTCTTGATTCGCTTGACGCTGCTG,605

# Further values, each from its own experiment
Molecule,target,test,system,setting,scale,measurement,value
"PhoQ, residues 284 288 289 292 302 303 AAQSYM","PhoP, residues 12 14 15 18 19 GQAIL (Escherichia coli, UniProt P23836)","Sort-seq, refers to: YFP reporter",E. coli,"PhoQ-PhoP variant library, together with: 10 µM Mg2+","baseline: high Mg2+ state, higher = stronger signaling",fold induction,10.9

# Repeated from above (series 3):
Oligonucleotide,fluorescence intensity [a.u.]
GAATTTAGTGTAAAAAAGGTGATGATAATTTATTAGGTCTTGATTCGCTTGACGCTGCTG,535
CTACTCTTTACACCGTACGTGATAATACACTAATTCGTCTTGATTCGCTTGACGCTGCTG,605
